# Results from different studies.
# ± gives the spread as reported.
# SPT15 full length assumed: SPT15 full length assumed (Saccharomyces cerevisiae, UniProt P13393)
# UniProt P13393, sequence (whole entry, looked up): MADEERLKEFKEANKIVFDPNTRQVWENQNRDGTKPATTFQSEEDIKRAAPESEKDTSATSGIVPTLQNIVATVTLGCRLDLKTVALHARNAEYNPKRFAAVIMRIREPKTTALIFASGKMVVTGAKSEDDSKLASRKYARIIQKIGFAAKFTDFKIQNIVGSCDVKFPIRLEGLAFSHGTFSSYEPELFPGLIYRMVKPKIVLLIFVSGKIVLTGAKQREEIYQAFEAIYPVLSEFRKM
# TGM2: TGM2 2-687 (Homo sapiens, UniProt P21980)
# UniProt P21980, sequence (whole entry, looked up): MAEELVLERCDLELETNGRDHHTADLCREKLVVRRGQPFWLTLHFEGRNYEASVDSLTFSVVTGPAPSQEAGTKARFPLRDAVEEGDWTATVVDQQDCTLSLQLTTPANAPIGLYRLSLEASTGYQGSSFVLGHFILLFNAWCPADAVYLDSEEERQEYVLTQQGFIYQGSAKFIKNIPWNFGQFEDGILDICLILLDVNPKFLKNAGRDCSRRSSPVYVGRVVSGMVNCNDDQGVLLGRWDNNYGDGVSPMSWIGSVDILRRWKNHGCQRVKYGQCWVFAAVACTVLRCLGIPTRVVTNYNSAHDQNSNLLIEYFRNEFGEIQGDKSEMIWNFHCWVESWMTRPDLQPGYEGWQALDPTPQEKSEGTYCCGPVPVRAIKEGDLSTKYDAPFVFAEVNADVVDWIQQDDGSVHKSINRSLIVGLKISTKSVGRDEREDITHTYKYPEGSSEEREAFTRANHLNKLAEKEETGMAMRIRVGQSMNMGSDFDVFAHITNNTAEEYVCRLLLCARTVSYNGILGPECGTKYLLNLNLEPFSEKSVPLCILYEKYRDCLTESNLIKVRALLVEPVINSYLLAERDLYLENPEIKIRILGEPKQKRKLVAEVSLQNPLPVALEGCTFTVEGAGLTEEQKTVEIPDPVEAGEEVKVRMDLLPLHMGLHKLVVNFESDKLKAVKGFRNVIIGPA
# U2AF2: U2AF2 148-342 (Homo sapiens, UniProt P26368)
# UniProt P26368, sequence (whole entry, looked up): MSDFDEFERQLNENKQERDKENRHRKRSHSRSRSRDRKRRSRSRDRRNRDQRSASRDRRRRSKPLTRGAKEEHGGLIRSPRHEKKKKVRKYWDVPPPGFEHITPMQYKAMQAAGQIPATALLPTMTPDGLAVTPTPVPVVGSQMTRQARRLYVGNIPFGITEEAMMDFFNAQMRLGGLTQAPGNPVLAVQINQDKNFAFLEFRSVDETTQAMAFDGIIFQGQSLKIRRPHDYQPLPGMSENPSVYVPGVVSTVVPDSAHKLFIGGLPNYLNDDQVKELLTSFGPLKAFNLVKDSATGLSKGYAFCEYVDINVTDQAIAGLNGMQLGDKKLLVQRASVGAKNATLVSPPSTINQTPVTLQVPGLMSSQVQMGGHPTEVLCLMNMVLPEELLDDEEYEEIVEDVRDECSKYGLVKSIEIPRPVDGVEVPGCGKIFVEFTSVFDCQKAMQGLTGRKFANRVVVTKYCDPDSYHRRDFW
# nac full length assumed: nac full length assumed (Escherichia coli, UniProt Q47005)
# UniProt Q47005, sequence (whole entry, looked up): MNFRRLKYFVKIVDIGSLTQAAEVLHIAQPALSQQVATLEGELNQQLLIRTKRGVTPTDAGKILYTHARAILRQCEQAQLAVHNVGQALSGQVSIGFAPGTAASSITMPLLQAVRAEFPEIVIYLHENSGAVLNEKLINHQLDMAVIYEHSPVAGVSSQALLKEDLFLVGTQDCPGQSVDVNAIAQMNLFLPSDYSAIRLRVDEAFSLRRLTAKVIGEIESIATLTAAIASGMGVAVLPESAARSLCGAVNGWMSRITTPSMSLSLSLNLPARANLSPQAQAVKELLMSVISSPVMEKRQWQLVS
# pdhR full length assumed: pdhR full length assumed (Escherichia coli, UniProt P0ACL9)
# UniProt P0ACL9, sequence (whole entry, looked up): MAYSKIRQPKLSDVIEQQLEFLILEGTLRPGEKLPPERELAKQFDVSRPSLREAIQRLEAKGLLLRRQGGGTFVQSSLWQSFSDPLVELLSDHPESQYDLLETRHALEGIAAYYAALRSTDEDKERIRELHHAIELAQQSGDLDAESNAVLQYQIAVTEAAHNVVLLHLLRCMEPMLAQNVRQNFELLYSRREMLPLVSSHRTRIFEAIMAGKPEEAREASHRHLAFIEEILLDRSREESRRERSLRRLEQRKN
# CBF1: CBF1 1-351 (Saccharomyces cerevisiae, UniProt P17106)
# UniProt P17106, sequence (whole entry, looked up): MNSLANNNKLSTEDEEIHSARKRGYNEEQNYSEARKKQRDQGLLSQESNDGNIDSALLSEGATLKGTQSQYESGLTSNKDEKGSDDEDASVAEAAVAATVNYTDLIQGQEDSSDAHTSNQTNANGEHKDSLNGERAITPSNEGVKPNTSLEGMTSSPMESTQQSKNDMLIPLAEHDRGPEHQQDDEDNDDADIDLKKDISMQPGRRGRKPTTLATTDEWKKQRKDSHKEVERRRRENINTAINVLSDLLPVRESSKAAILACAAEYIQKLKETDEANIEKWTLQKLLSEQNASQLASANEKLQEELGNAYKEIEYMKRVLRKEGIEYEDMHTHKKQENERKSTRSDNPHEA
# PARP1: PARP1 1-1014 (Homo sapiens, UniProt P09874)
# UniProt P09874, sequence (whole entry, unmodified, looked up): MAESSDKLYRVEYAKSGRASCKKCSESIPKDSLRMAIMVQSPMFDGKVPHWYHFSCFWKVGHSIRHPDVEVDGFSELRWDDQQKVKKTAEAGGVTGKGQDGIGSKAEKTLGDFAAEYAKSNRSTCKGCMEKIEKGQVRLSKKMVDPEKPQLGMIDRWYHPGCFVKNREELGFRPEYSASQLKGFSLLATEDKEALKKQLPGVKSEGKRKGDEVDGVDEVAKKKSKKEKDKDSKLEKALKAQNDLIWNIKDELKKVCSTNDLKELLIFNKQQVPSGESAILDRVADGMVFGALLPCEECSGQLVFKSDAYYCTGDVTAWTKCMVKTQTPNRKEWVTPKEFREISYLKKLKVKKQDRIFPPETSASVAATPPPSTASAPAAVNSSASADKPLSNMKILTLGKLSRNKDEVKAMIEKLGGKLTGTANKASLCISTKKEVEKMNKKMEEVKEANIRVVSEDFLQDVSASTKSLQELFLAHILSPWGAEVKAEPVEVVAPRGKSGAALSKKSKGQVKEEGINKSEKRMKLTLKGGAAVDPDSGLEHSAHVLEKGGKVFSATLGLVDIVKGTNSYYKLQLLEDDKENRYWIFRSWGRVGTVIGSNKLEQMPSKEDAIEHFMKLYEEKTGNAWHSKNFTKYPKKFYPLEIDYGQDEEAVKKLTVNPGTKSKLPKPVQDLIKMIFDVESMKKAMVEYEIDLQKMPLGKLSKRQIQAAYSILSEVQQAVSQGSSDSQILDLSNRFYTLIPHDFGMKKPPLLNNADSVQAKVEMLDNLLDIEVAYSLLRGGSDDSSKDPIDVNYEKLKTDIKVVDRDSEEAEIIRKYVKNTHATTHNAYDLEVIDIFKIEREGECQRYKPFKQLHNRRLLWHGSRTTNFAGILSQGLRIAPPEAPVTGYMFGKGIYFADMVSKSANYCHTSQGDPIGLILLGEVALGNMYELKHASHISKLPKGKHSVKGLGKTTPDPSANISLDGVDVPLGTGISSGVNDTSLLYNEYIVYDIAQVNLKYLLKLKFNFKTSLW
# CIN5 full length assumed: CIN5 full length assumed (Saccharomyces cerevisiae, UniProt P40917)
# UniProt P40917, sequence (whole entry, looked up): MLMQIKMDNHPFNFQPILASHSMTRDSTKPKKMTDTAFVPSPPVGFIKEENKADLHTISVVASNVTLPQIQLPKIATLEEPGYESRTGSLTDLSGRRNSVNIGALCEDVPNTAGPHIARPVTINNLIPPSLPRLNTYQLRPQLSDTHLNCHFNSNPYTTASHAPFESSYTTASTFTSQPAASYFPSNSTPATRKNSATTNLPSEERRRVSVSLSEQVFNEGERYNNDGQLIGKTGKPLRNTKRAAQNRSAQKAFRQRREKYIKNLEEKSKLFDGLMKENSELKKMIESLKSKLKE
# T1: MUTYH 1-535 (Homo sapiens); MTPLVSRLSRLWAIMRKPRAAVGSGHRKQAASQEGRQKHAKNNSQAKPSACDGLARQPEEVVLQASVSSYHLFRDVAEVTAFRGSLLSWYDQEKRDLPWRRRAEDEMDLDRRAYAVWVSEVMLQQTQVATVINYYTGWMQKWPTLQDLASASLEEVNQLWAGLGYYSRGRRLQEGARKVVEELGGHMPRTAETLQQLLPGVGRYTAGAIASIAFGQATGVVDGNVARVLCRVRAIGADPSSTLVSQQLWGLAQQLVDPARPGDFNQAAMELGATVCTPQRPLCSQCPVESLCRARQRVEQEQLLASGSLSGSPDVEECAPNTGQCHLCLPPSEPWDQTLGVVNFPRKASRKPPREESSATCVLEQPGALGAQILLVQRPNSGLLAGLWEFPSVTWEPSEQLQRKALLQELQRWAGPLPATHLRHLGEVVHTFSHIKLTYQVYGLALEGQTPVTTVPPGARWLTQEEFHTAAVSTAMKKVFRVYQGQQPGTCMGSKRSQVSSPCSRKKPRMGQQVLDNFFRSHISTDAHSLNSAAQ
# UniProt P15976, sequence (whole entry, looked up): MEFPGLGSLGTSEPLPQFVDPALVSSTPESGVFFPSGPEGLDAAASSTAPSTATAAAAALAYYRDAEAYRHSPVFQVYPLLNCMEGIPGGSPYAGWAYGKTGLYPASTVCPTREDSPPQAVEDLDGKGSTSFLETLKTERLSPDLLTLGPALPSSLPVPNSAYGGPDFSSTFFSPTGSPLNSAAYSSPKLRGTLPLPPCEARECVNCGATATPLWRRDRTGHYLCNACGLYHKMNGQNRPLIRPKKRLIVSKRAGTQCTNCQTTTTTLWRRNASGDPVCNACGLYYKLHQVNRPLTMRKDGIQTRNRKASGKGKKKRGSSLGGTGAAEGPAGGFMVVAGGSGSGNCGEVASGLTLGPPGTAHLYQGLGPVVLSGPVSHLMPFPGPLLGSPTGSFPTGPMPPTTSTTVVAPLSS
# UniProt P07270, sequence (whole entry, looked up): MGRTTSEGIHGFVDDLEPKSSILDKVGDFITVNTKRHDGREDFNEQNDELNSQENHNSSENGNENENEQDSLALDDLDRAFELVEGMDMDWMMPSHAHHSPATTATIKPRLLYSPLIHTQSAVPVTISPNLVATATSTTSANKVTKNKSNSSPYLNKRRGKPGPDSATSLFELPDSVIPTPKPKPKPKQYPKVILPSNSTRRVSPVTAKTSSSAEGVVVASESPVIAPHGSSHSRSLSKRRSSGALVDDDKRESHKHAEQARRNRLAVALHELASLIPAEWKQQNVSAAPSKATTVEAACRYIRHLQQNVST
# UniProt P07676, sequence (whole entry, unmodified, looked up): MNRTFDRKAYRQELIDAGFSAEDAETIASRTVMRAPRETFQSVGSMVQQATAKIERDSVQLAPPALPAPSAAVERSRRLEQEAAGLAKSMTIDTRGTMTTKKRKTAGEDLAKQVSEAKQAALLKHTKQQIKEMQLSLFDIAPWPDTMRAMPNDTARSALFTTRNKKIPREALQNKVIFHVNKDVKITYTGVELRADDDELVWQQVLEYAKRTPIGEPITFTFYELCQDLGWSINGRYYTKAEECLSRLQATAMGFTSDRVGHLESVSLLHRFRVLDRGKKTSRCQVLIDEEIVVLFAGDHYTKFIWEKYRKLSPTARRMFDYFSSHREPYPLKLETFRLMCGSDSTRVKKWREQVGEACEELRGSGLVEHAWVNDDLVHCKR
# UniProt P63159, sequence (whole entry, looked up): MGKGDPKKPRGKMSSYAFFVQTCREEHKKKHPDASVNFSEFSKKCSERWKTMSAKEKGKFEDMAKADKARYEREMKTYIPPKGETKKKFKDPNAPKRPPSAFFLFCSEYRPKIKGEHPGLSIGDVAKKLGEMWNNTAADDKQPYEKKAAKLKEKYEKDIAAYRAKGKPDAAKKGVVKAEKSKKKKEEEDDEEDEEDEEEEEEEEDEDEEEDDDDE
Substance,tested on,test,system,setting,scale,endpoint,value
CTCAGGAATTCCTGTAAAGTAATGTGGAGCTCAGTTCAAGTCAATCGGTCC (dsDNA; 5'-amino-C6 primer),SPT15 full length assumed,array,"double-stranded DNA, one strand shown",TBP alone,,Kd,30.8 ± 3.16 nM
GGGAGCAGGAGAGAGGUCAGAUGUGUAGGGAAUGACCGGGGUCCUUAACGCUUCCUAUGCGUGCUAGUGUGA (ssRNA; 2'-fluoro pyrimidines),TGM2,SPR,RNA,with: MgCl2 5 mM,higher = more binding,relative binding,316 RU
AAACCUCUUUUCUUUAUAAA (ssRNA),U2AF2,ITC,RNA,,,Kd,914 ± 461 nM
TTGACAAAATTTGAAAGTTGGAAAAATTTTCCAATAAATAGAGGTAGGAATAAAATGGCAA (dsDNA),nac full length assumed,BLI,"double-stranded DNA, one strand shown",,,Kd,4280 nM
AGGATCAGCCATTTGGCACACCAAGTGGTCCAAATGATGATTTAGG (dsDNA),"Protein BZR1 homolog 1-304 (Oryza sativa, UniProt A0A0P0UYT3)",MST,"double-stranded DNA, one strand shown",,,Kd,2.8 nM
GCAGCCCTGGTTAAAAACAAGGTTTATAAATATTGGTTTAAAAGCAGGTTAAAAGACAGGTTAGCGGTGG (ssDNA),"trfA 98-382 G254D/S267L (Escherichia coli, UniProt P07676)",SPR,single-stranded DNA,,,Kd,50.9 nM
AGCGTCACAGACATGAAAATGGTCTGACCATTTGACCTCGGCAAGTGGCTTAAGACAGGAA (dsDNA),pdhR full length assumed,BLI,"double-stranded DNA, one strand shown",,,Kd,1.35 nM
AUCAUGUGCCAUAC (ssRNA),"fbf-1 162-573 (Caenorhabditis elegans, UniProt Q9N5M6)",EMSA,RNA,,,Kd,54 nM
CTCAGGAATTCCGATAAAGTAATGTGGAGCTCAGTTCAAGTCAATCGGTCC (dsDNA; 5'-amino-C6 primer),SPT15 full length assumed,array,"double-stranded DNA, one strand shown",TBP alone,,Kd,6.82 ± 1.08 nM
CAATACACTGTTATCAGGCACACGTGTCGAGCTACTCGTTCGGTTATCCGGCGGTATGAC (dsDNA),CBF1,MITOMI,"double-stranded DNA, one strand shown",not purified,,Kd,182 ± 10 nM
ACAGGGGTGTGGGGACAGGGGTGTGGGG (G-quadruplex DNA (Homo sapiens); intramolecular G4),IGF2 fragment (Homo sapiens),SPR,folded DNA,with: IGF-2 45-900 nM,,Kd,1.3 nM
CAATACACTGTTATCAGACACACGTGTCGAACTACTCGTTCGGTTATCCGGCGGTATGAC (dsDNA),"PHO4 1-312 (Saccharomyces cerevisiae, UniProt P07270)",MITOMI,"double-stranded DNA, one strand shown",not purified,,Kd,121 ± 3 nM
GAUUUCAUU (ssRNA),U2AF2,sequencing of bound RNA,RNA,motif only,,Kd,9730 nM
TCCTGAAGGGGAGCCCTAGCTTGGTCCTATCGTCGTCAAGTCAATCGGTCC (dsDNA; 5'-amino-C6 primer),SPT15 full length assumed,array,"double-stranded DNA, one strand shown",TBP alone,,Kd,9.08 ± 3.35 nM
ATGGCGGGCTATGATCCTAT (dsDNA),"HMGB3 full length assumed (Homo sapiens, UniProt O15347)",fluorescence anisotropy,"double-stranded DNA, one strand shown",,,Kd,70 ± 7 nM
CAATACACTGTTATCGGACACACGTGTCGAGCTACTCGTTCGGTTATCCGGCGGTATGAC (dsDNA),CBF1,MITOMI,"double-stranded DNA, one strand shown",not purified,,Kd,217 ± 12 nM
CTCAGGAATTCCTATAAAGTAATGTGGAGCTCAGTTCAAGTCAATCGGTCC (dsDNA; blunt; 5'-amino-C6 primer),SPT15 full length assumed,EMSA,"double-stranded DNA, one strand shown",,,Kd,5.5 ± 1.5 nM
GCGGUGUAUAGCCUAAUCUUUACCGC (structured RNA),PARP1,fluorescence polarization,folded RNA,Hill coefficient 0.97,,Kd,120 ± 8 nM
TGGATCAATCGTATAAAGAGAATTCCTGGTATGGATCAAGTCAATCGGTCC (dsDNA; 5'-amino-C6 primer),"SUA7 full length assumed (Saccharomyces cerevisiae, UniProt P29055)",array,"double-stranded DNA, one strand shown",TFIIB alone,,Kd,3.48 ± 1.51 nM
TTCAATGCTCAATAATTGTGCAACAAACCTGGCGTGCACCATGATGATCATTCCATCAGGT (dsDNA),"glnG full length assumed (Escherichia coli, UniProt P0AFB8)",BLI,"double-stranded DNA, one strand shown",,,Kd,29.4 nM
CGCAAAAACAACUAAAUCAAAACCAA (ssRNA; unstructured),"PARP1 216-1014 del1-215 (Homo sapiens, UniProt P09874)",fluorescence polarization,RNA,Hill coefficient 0.81,,Kd,220 ± 24 nM
CAATACACTGTTATCAGACACACGTGCCGAGCTACTCGTTCGGTTATCCGGCGGTATGAC (dsDNA),CBF1,MITOMI,"double-stranded DNA, one strand shown",not purified,,Kd,104 ± 5 nM
"CGATCATGGAGCCACGAGCTCCCGTTACAG / CTGTAACGGGAGCTNGTGGCTCCATGATCG (dsDNA; blunt, 8-oxoG opposite N)","T1, MUTYH 1-535 (Homo sapiens)",EMSA,,,,Kd,< 0.05 nM
AAUUACAUU (ssRNA),U2AF2,sequencing of bound RNA,RNA,motif only,,Kd,6790 nM
GGGCUGCUGCUGCUGCUGCUGCUGCUGCUGCUGCUGCUGCCC (structured RNA),"MBNL1 1-253 (Homo sapiens, UniProt Q9NR56)",EMSA,folded RNA,,,Kd,9 ± 1 nM
CGCTATTTACGTCACTACGTCAGCACGTCAGGACGTCAGTACGTCATCACGTCATCTCCGGCGGTATGAC (dsDNA),"PHO4 full length assumed (Saccharomyces cerevisiae, UniProt P07270)",MITOMI,"double-stranded DNA, one strand shown",not purified,,Kd,2100 ± 300 nM
GGTAACTTAGCGTCTCGTTGTGATTAAGTTTGACGAGGAATGGAATGCGATGCGCATAACG (dsDNA),pdhR full length assumed,BLI,"double-stranded DNA, one strand shown",,,Kd,2060 nM
GAATTCCTATAAAGTAATGTGGAGCTCCGTTCGTCTCAAGTCAATCGGTCC (dsDNA; blunt; 5'-amino-C6 primer),SPT15 full length assumed,EMSA,"double-stranded DNA, one strand shown",,,Kd,3.1 ± 1.3 nM
GGUGCCUCCAUCACCUGGUCUUUGUAGACCACCUGAUGGAGGCACCC (RNA; hairpin with terminal loop),"GATA1 200-311 (Homo sapiens, UniProt P15976)",fluorescence anisotropy,folded RNA,,,Kd,< 1300 nM
TTTGCGTGGGCTGTGGTGCTTT (ssDNA),"traI 1-569 (Escherichia coli, UniProt P14565)",fluorescence titration,single-stranded DNA,,,Kd,1300 ± 800 nM
CCAGGCAGAUAAGGAACAAC (ssRNA),"GATA1 200-319 (Homo sapiens, UniProt P15976)",fluorescence anisotropy,RNA,,,Kd,80 ± 20 nM
GGTAACTTAGCGTCTCGTTGTGCTTAGGTATGACGAGGAATGGAATGCGATGCGCATAACG (dsDNA),"ulaR full length assumed (Escherichia coli, UniProt P0A9W0)",BLI,"double-stranded DNA, one strand shown",,,Kd,165 nM
UAUUUGAUU (ssRNA),U2AF2,sequencing of bound RNA,RNA,motif only,,Kd,5140 nM
TTCTGATCACCGACATGAAAGCTAACAGGAACGTTAAGTGCCTTAGCTCCGGCTACCGTGC (dsDNA),pdhR full length assumed,BLI,"double-stranded DNA, one strand shown",,,Kd,14900 nM
"GCCTACCGGTTCGCGAACCGGTAGGC (dsDNA; blunt, self-complementary, 5'-phosphate)",PARP1,fluorescence polarization,"double-stranded DNA, one strand shown",,,Kd,0.6 nM
CTGAAGGGGGGGCTATAAAAGGGGGTGGGGGCTCCTCAAGTCAATCGGTCC (dsDNA; 5'-amino-C6 primer),SPT15 full length assumed,array,"double-stranded DNA, one strand shown",TBP alone,,Kd,1.92 ± 0.12 nM
DNA 1 TGTGTCACCACTGCTCACGTACAGAGCTG / DNA 2 CAGCTCTGTACGTGAGCAGTGGTGACAC (dsDNA; 5' 1-nt overhang),"TDG 1-410 (Homo sapiens, UniProt Q13569)",EMSA,double-stranded DNA,,,Kd,47 nM
CGCTTCAATGTTTGAATGTTTTAATTAATTACACAATTACAGAATTACATAATTACTCCGGCGGTATGAC (dsDNA),CIN5 full length assumed,MITOMI,"double-stranded DNA, one strand shown",not purified,,Kd,240 ± 20 nM
GAUAAAGAUCAUGACAUCGACUACAAGGACGACGACGACAAGGUUGUGGAGCUGAUCGAGAAGCACCACCACCACCACCACAAAGUGGUGAUGAACUAA (RNA; predicted 2-5 helices),"FMR1 KH domains (Homo sapiens, UniProt Q06787)",fluorescence anisotropy,,"estimated, very weak",,Kd,> 30000 nM
colistin,Acinetobacter baumannii,,clinical isolate RKI 19/09,,,MIC,0.5 µg/mL
CATTCGCTTGCTATAAGTAGACCCAATGGAACTCATCATAAATGAGACTTTTACCTTATGA (dsDNA),nac full length assumed,BLI,"double-stranded DNA, one strand shown",,,Kd,5.21 nM
ATGACATGACACGTTACGTT (dsDNA),"HMGB1 A+B boxes (Rattus norvegicus, UniProt P63159)",fluorescence anisotropy,"double-stranded DNA, one strand shown",with: Mg2+ 2 mM,,Kd,47 nM
CAATACACTGTTATCAGACACACGTGTTGAGCTACTCGTTCGGTTATCCGGCGGTATGAC (dsDNA),CBF1,MITOMI,"double-stranded DNA, one strand shown",not purified,,Kd,208 ± 10 nM
GAAGA (ssRNA),"SART3 697-786 (Homo sapiens, UniProt Q15020)",ITC,RNA,,,Kd,2600 ± 500 nM
CGCTGATCACGTGATGACGTGATTACGTGCAGACGTGCATACGTGCCCACGTGCCCTCCGGCGGTATGAC (dsDNA),CIN5 full length assumed,MITOMI,"double-stranded DNA, one strand shown",not purified,,Kd,790 ± 60 nM
GGGAGCAGGAGAGAGGUCAGAUGAACGAGAGAUGGUAGGCCUCAAAUACAGUCCCUAUGCGUGCUAGUGUGA (ssRNA; 2'-fluoro pyrimidines),TGM2,SPR,RNA,with: MgCl2 5 mM,higher = more binding,relative binding,245 RU
AAACAUUUU (ssRNA),U2AF2,sequencing of bound RNA,RNA,motif only,,Kd,3460 nM

# For quick reference, copied from above:
Substance,tested on,test,system,setting,scale,endpoint,value
CGCAAAAACAACUAAAUCAAAACCAA (ssRNA; unstructured),"PARP1 216-1014 del1-215 (Homo sapiens, UniProt P09874)",fluorescence polarization,RNA,Hill coefficient 0.81,,Kd,220 ± 24 nM
CAATACACTGTTATCAGACACACGTGTTGAGCTACTCGTTCGGTTATCCGGCGGTATGAC (dsDNA),CBF1,MITOMI,"double-stranded DNA, one strand shown",not purified,,Kd,208 ± 10 nM
ACAGGGGTGTGGGGACAGGGGTGTGGGG (G-quadruplex DNA (Homo sapiens); intramolecular G4),IGF2 fragment (Homo sapiens),SPR,folded DNA,with: IGF-2 45-900 nM,,Kd,1.3 nM
